Published values pooled from the literature.
A part holds a random share of what one study measured.
UniProt Q9P1W9, sequence (whole entry, looked up): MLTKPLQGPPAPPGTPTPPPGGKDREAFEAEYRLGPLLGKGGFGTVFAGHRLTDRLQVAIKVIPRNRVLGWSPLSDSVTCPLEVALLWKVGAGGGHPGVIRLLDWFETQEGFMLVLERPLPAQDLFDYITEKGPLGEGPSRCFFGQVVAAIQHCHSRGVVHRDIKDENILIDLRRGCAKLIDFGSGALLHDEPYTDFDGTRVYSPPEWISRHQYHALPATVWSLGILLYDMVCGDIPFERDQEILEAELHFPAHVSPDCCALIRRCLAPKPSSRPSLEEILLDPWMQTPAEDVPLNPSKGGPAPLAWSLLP
UniProt Q9UIK4, sequence (whole entry, looked up): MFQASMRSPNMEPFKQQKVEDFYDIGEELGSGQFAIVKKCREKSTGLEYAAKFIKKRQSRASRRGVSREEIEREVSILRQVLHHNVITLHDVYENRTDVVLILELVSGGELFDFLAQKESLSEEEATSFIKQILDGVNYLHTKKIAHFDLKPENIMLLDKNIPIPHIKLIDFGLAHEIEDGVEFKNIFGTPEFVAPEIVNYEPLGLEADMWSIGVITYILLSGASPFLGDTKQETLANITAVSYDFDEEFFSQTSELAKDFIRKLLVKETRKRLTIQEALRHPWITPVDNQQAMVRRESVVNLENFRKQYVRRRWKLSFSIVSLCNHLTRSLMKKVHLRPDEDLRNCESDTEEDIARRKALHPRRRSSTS
UniProt P04629, sequence (whole entry, looked up): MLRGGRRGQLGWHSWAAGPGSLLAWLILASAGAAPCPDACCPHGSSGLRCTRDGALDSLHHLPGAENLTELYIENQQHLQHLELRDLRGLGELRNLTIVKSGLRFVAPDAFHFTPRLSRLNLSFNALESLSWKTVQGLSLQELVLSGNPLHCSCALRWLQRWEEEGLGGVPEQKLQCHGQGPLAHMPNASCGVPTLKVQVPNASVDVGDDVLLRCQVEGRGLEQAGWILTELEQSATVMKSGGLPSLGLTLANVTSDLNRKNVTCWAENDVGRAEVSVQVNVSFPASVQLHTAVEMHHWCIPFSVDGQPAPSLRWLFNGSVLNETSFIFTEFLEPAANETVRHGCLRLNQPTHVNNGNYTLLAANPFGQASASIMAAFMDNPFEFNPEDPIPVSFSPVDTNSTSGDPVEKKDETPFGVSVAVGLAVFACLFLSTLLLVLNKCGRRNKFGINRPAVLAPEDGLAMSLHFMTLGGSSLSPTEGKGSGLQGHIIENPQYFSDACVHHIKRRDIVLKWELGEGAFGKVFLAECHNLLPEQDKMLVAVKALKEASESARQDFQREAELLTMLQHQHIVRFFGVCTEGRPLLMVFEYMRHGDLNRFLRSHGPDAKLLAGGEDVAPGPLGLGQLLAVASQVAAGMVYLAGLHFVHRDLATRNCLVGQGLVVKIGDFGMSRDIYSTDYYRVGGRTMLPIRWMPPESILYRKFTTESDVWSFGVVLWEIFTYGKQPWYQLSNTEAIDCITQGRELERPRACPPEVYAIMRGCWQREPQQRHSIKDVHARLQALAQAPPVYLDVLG
UniProt P05771, sequence (whole entry, looked up): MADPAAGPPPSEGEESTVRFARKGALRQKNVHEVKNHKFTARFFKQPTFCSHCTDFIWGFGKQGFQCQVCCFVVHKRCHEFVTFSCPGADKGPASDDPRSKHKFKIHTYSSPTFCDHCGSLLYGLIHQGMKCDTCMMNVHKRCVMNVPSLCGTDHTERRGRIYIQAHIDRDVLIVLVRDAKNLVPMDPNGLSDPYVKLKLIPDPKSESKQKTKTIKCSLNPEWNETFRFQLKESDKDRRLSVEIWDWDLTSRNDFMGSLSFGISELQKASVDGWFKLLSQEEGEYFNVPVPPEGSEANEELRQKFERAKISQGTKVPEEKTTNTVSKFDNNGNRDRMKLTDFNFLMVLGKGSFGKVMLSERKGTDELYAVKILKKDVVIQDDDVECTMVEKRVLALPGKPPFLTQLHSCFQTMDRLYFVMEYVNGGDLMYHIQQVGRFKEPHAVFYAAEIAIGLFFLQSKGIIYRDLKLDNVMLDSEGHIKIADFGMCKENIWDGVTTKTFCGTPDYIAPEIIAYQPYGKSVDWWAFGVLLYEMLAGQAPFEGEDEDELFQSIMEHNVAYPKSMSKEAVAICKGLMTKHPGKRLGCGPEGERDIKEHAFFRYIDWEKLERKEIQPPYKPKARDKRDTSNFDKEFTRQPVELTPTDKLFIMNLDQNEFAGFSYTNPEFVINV
UniProt Q9UF33, sequence (whole entry, looked up): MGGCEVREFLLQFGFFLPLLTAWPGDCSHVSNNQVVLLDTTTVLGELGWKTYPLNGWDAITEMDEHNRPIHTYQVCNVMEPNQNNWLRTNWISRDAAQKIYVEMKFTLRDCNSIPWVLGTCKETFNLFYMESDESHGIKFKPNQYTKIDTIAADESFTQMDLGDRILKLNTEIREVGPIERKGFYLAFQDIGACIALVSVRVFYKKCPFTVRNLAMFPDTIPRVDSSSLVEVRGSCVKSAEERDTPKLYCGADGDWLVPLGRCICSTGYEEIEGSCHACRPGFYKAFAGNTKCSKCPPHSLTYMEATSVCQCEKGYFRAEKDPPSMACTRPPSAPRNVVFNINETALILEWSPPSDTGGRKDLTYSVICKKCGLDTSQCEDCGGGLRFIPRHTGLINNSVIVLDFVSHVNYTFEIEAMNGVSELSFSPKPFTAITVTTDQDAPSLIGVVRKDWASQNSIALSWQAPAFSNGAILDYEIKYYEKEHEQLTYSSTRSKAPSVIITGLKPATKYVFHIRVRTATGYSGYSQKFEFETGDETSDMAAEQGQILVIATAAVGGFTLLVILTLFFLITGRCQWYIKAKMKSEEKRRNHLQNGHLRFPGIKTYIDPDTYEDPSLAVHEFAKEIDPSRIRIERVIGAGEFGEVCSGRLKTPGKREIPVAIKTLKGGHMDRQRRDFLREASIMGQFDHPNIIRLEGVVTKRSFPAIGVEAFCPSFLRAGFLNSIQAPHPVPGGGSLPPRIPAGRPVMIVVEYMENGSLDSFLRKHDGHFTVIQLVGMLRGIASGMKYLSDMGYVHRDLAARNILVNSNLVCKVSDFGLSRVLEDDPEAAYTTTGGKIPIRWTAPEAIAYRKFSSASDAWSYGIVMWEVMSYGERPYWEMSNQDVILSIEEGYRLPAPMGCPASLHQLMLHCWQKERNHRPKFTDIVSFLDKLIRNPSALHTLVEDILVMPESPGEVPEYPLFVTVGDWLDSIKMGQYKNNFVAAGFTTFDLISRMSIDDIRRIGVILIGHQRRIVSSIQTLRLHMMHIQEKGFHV
UniProt P51955, sequence (whole entry, looked up): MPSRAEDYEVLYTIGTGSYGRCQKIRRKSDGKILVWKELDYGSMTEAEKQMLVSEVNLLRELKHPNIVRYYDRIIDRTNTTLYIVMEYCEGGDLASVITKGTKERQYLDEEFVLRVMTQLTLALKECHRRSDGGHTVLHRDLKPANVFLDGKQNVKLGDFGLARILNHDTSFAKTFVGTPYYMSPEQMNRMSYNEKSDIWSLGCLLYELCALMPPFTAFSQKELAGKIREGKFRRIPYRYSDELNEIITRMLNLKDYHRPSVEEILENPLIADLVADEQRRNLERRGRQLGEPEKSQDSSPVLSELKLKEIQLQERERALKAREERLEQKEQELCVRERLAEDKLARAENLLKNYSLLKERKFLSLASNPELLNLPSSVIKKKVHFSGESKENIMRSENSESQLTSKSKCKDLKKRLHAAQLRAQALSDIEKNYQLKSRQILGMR
UniProt P45984, sequence (whole entry, looked up): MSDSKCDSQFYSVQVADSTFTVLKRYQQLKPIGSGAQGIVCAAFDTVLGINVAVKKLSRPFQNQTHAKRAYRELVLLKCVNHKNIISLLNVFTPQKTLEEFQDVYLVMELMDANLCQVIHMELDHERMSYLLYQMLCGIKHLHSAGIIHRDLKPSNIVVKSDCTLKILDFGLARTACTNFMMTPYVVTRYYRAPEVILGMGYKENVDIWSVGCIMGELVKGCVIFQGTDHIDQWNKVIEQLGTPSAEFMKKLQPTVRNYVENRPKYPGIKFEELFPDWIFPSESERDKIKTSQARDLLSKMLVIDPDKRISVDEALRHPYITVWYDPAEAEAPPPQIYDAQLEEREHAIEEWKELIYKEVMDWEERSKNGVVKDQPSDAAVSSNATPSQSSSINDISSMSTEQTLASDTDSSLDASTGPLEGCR
UniProt Q00535, sequence (whole entry, looked up): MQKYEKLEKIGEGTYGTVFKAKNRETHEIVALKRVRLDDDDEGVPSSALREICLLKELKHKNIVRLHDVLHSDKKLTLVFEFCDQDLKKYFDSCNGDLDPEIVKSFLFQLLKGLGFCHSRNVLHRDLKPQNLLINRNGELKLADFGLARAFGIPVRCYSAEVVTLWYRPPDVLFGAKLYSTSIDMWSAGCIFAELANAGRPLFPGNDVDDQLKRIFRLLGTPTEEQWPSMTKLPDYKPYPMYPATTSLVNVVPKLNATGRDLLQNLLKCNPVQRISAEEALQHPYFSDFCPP

Series 1 — observed: enzyme activity; action: inhibitor; method: ADP-Glo
SMILES: CN(C(=O)c1ccn2ncc(-c3ccc(C(N)=O)cc3)c2c1)c1ccc(C#N)cn1
Target: Phosphatidylinositol 4-kinase (Cryptosporidium parvum, UniProt Q5CVD3)
Construct (Q5CVD3 1-1114): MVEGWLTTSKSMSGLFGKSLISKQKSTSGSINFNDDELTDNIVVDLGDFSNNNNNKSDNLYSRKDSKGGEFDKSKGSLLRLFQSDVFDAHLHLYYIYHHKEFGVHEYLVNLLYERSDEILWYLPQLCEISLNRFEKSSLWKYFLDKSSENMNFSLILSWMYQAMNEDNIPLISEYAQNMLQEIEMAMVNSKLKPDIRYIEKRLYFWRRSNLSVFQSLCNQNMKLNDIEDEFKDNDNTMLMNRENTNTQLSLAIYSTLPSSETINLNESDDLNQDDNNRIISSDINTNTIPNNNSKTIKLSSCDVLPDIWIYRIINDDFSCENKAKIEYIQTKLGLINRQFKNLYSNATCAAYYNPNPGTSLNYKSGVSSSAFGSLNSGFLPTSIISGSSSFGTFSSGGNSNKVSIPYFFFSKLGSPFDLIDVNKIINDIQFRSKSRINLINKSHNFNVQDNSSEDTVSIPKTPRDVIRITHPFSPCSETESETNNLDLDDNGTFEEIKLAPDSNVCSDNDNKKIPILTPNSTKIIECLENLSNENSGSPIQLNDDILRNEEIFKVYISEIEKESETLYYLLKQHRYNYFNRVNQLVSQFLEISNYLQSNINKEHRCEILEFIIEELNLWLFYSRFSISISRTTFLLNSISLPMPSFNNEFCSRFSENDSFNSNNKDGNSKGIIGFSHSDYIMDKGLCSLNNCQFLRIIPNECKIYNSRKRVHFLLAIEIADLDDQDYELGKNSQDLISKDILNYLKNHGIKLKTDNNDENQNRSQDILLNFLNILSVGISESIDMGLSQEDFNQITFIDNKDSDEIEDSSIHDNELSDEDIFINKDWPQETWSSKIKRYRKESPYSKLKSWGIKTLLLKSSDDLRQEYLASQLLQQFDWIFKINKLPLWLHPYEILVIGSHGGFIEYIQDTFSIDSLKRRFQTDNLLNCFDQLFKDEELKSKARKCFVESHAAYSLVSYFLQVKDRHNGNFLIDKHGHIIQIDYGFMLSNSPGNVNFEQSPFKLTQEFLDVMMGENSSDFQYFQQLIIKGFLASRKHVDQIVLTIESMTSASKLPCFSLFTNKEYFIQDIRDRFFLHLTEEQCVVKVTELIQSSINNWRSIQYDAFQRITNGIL
| concentration | inhibition [%] |
| --- | --- |
| 8.23e-05 µM | 85 |
| 0.000247 µM | 94.6 |
| 0.02 µM | 100 |
| 2.74e-05 µM | 64.8 |
| 9.15e-06 µM | 39.9 |

Series 2 — observed: enzyme activity; action: inhibitor; concentration: 0.5 µM; reference: control
Structure (SMILES): CC(=O)O/N=C1/C(c2c(O)[nH]c3cc(Br)ccc23)=Nc2ccccc21
| target | remaining activity [%] |
| --- | --- |
| Protein kinase C beta type, isoform beta-I (PRKCB, Homo sapiens, UniProt P05771) | 105 |
| Serine/threonine-protein kinase Chk2 (CHEK2, Homo sapiens, UniProt O96017) | 75.8 |
| Death-associated protein kinase 2 (DAPK2, Homo sapiens, UniProt Q9UIK4) | 68.7 |
| Mitogen-activated protein kinase 9 (MAPK9, Homo sapiens, UniProt P45984) | 90.5 |
| Serine/threonine-protein kinase 10 (STK10, Homo sapiens, UniProt O94804) | 99.3 |
| G protein-coupled receptor kinase 3 (GRK3, Homo sapiens, UniProt P35626) | 95.7 |
| TGF-beta receptor type-1 (TGFBR1, Homo sapiens, UniProt P36897) | 101 |
| cAMP-dependent protein kinase catalytic subunit alpha (PRKACA, Homo sapiens, UniProt P17612) | 109 |
| Mitogen-activated protein kinase kinase kinase 3 (MAP3K3, Homo sapiens, UniProt Q99759) | 97.4 |
| Calcium/calmodulin-dependent protein kinase type II subunit delta (CAMK2D, Homo sapiens, UniProt Q13557) | 53.8 |
| STE20/SPS1-related proline-alanine-rich protein kinase (STK39, Homo sapiens, UniProt Q9UEW8) | 105 |
| cGMP-dependent protein kinase 1, isoform beta (PRKG1, Homo sapiens, UniProt Q13976) | 86.1 |
| Death-associated protein kinase 1 (DAPK1, Homo sapiens, UniProt P53355) | 86.8 |
| Calcium/calmodulin-dependent protein kinase kinase 2 (CAMKK2, Homo sapiens, UniProt Q96RR4) | 102 |
| Cyclin-dependent kinase 5, with p25 (CDK5, Homo sapiens, UniProt Q00535) | 51.4 |
| Serine/threonine-protein kinase OSR1 (OXSR1, Homo sapiens, UniProt O95747) | 112 |
| Inhibitor of nuclear factor kappa-B kinase subunit epsilon (IKBKE, Homo sapiens, UniProt Q14164) | 81.4 |
| Serine/threonine-protein kinase Nek2 (NEK2, Homo sapiens, UniProt P51955) | 73.9 |
| TGF-beta receptor type-2 (TGFBR2, Homo sapiens, UniProt P37173) | 132 |
| Tyrosine-protein kinase Lyn, isoform B (LYN, Homo sapiens, UniProt P07948) | 52.4 |
| Protein kinase C alpha type (PRKCA, Homo sapiens, UniProt P17252) | 105 |
| Inhibitor of nuclear factor kappa-B kinase subunit beta (IKBKB, Homo sapiens, UniProt O14920) | 92.4 |

Series 3 — observed: cell-free assay; method: competition with immobilised ligand; concentration: 1 µM
Structure (SMILES): C[C@@]1(Cc2ccc(C#N)cc2)C(=O)N(c2cc(Cl)cc(Cl)c2)c2ncc(C(=O)NC3(c4nc(C5CCC5)no4)CC3)n21
| target | remaining binding [%] |
| --- | --- |
| Serine/threonine-protein kinase 33 (STK33, Homo sapiens, UniProt Q9BYT3) | 100 |
| Misshapen-like kinase 1 (MINK1, Homo sapiens, UniProt Q8N4C8) | 100 |
| Serine/threonine-protein kinase pim-2 (PIM2, Homo sapiens, UniProt Q9P1W9) | 98 |
| Ribosomal protein S6 kinase alpha-1, N-terminal kinase domain (RPS6KA1, Homo sapiens, UniProt Q15418) | 100 |
| Testis-specific serine/threonine-protein kinase 1 (TSSK1B, Homo sapiens, UniProt Q9BXA7) | 76 |
| High affinity nerve growth factor receptor (NTRK1, Homo sapiens, UniProt P04629) | 100 |
| Serine/threonine-protein kinase 26 (STK26, Homo sapiens, UniProt Q9P289) | 100 |
| Tyrosine-protein kinase BTK (BTK, Homo sapiens, UniProt Q06187) | 100 |
| Ephrin type-A receptor 6 (EPHA6, Homo sapiens, UniProt Q9UF33) | 88 |
| Calcium/calmodulin-dependent protein kinase kinase 1 (CAMKK1, Homo sapiens, UniProt Q8N5S9) | 100 |
| Tyrosine-protein kinase ABL1, non-phosphorylated (ABL1, Homo sapiens, UniProt P00519, Q252H) | 89 |
| Mitogen-activated protein kinase kinase kinase 10 (MAP3K10, Homo sapiens, UniProt Q02779) | 100 |
| Myosin-IIIa (MYO3A, Homo sapiens, UniProt Q8NEV4) | 100 |
| Serine/threonine-protein kinase 25 (STK25, Homo sapiens, UniProt O00506) | 100 |

Series 4 — cell line: A-375; concentration: 100 µM; time: 18 h
| Structure (SMILES) | viability |
| --- | --- |
| C[C@]12C=CC(=O)N[C@@H]1CC[C@@H]1[C@@H]2CC[C@]2(C)[C@@H](C(=O)Nc3cc(C(F)(F)F)ccc3C(F)(F)F)CC[C@@H]12 | 73.9% |
| N=C(N)c1ccc(/N=N/Nc2ccc(C(=N)N)cc2)cc1 | 46% |
| CC(=O)Oc1cccc2c1C(=O)c1c(OC(C)=O)cc(C(=O)O)cc1C2=O | 51% |
| Nc1ccc(S(=O)(=O)Nc2ccccn2)cc1 | 93.5% |
| [H]/N=C(/N)N/C(=N/[H])NCCc1ccccc1 | 98.7% |
| CC(=O)N(O)CCCCCNC(=O)CCC(=O)N(O)CCCCCNC(=O)CCC(=O)N(O)CCCCCN | 98.6% |
| CN1CCC(=C2c3ccccc3CCn3c(C=O)cnc32)CC1 | 94.3% |
| C[C@H]1[C@@H](O)O[C@@H]2O[C@@]3(C)CC[C@H]4[C@H](C)CC[C@@H]1[C@@]24OO3 | 22% |
| CCn1c(=O)c2c(nc(/C=C/c3ccc(OC)c(OC)c3)n2C)n(CC)c1=O | 102% |
| Nc1nc(N)c2nc(-c3ccccc3)c(N)nc2n1 | 42.9% |
| O=C(OC1C[C@@H]2CC3C[C@H](C1)N2CC3=O)c1c[nH]c2ccccc12 (stereo partly drawn) | 91% |
| O=C(Oc1ccccc1C(=O)O)c1ccccc1O | 83.7% |
| COc1ccc(C[C@@H]2c3cc(OC)c(OC)cc3CC[N@+]2(C)CCC(=O)OCCCCCOC(=O)CC[N@@+]2(C)CCc3cc(OC)c(OC)cc3[C@H]2Cc2ccc(OC)c(OC)c2)cc1OC | 77.4% |
| O=C(O)CCCN1CCC(O[C@@H](c2ccc(Cl)cc2)c2ccccn2)CC1 | 101% |
| COc1ccc(OC)c(C(O)CNC(=O)CN)c1 (stereo not drawn) | 100% |
| COc1ccc(C(C)=O)c(O)c1 | 102% |

For quick reference, copied from above (series 2):
| target | remaining activity [%] |
| --- | --- |
| Mitogen-activated protein kinase 9 (MAPK9, Homo sapiens, UniProt P45984) | 90.5 |
| Serine/threonine-protein kinase 10 (STK10, Homo sapiens, UniProt O94804) | 99.3 |
| G protein-coupled receptor kinase 3 (GRK3, Homo sapiens, UniProt P35626) | 95.7 |
| TGF-beta receptor type-1 (TGFBR1, Homo sapiens, UniProt P36897) | 101 |
